Experimental data of several laboratories.
A part holds a random share of what one study measured. Changes are numbered by the printed parent chain.

Sample 1
Target: CCNF, cyclin fold, Cln2 fusion (human)
Method: yeast growth competition, sequencing
Medium: yeast
Notes: strong parent motif
Relative to: not given
Reading: higher = stronger binding
Starting sequence: PKMYT1 docking peptide (human); SFEPRNLLSLFED; partner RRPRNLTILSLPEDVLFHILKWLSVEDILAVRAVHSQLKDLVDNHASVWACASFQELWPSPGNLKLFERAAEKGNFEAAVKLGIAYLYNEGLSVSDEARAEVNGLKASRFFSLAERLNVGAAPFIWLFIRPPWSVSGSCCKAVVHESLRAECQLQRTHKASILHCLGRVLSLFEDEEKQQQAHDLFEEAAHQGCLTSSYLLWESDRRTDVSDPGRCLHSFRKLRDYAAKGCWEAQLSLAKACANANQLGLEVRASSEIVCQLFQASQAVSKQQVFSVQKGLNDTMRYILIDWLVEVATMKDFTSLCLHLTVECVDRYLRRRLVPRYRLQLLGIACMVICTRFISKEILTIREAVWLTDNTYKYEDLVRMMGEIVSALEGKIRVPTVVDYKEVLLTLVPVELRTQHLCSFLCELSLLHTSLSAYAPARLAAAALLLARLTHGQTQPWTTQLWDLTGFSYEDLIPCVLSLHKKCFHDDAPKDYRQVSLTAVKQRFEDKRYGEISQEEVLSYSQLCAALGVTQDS
`F11W` — result for “normalised enrichment score”: 0.0565.
For `E12H`, “normalised enrichment score” read 0.192.
Under “normalised enrichment score”, `S1A` is recorded as 1.94.
`S9E` — result for “normalised enrichment score”: 0.824.
For `F11K`, “normalised enrichment score” read -0.0301.
For `P4R`, “normalised enrichment score” read 0.127.
For `S9T`, “normalised enrichment score” read -0.196.
`L7C` — result for “normalised enrichment score”: -1.02.
For `F11S`, “normalised enrichment score” read -0.978.
`E12I` — result for “normalised enrichment score”: 1.55.
For `S1V`, “normalised enrichment score” read 1.94.
`L10T`: “normalised enrichment score” -0.458.
`S1Q`: “normalised enrichment score” 0.89.
`F2S` — result for “normalised enrichment score”: 0.523.
For `L7V`, “normalised enrichment score” read -0.546.
Under “normalised enrichment score”, `E3A` is recorded as 2.32.

Sample 2
Target: RING finger protein unkempt homolog, zinc fingers 1-6, GST-SBP tag (UNK, Homo sapiens, UniProt Q9C0B0, residues 30-357)
UniProt Q9C0B0, sequence (30-357, looked up): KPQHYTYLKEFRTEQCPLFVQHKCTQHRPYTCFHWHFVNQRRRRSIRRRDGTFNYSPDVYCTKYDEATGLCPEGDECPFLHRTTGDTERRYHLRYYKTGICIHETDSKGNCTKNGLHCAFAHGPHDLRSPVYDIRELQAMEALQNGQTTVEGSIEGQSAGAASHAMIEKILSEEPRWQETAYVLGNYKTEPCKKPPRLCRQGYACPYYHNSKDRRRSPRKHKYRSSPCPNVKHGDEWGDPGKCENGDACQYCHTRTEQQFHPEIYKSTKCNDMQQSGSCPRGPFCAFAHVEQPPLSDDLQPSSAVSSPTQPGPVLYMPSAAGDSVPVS
Method: RNA Bind-n-Seq
Molecule type: RNA
Medium: in vitro
Tested at: not given
Notes: RNA with constant flanks, human-mouse chimeric sites, ends assumed
Relative to: input RNA pool
Reading: higher = stronger binding
With `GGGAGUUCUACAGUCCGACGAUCAGAGAUAAGACAUCCAGGAACAUGCGAGGGUCACGGAUGAAUGGGUUGCCUAGCCCCACUCACAGCGCCCACUGUAGCUUCUACCGAACCAGAACCUUGCAGGCAUUGAGUAAUGAGAAGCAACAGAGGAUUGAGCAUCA` the bound/input enrichment was 0.26 ratio.
With `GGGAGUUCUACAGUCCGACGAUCAAAGUGGACUAUGGCGAGUACAUGGAUAAAAACAAUGUGAGGCGGCAAGCAACAACAAUCAUAGCUGAUAACAUUAUAUUUCUGAGUGACCAGACAAAAGAGAAGGAGUAGAAAGGAUGACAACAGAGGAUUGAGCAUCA` the bound/input enrichment was 3.21 ratio.
`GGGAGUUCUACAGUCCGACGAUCGGAAGUACAAUGAUGGAGAUUGAUGGUGACAAAGGCAAACAAGGCGGUCCCACCUACUACAUAGACACCAAUGCCCUCCGCGUGCCCAGGGAGAACAUGGAGGCCAUCUCACCACUCAAGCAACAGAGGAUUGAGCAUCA` gave a bound/input enrichment of 0.234 ratio.
`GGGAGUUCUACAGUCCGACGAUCUUGUGCAAUGAUGCUUGAGAUGGUUUUUGCAAAAGCAGAAAUCGCUGCAAGGUAAUCACAAUAGAUAAAAGUGGUAUUUUAAACCUUUGAAAGGAAUGGAUGUAACUGUACCUUGGUACACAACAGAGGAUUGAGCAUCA` has a bound/input enrichment of 0.342 ratio.
With `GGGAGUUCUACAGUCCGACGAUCAACUUUGUGCAUCGGUUUCCCUUUGUAGCUGUUUCAAUUGGCUUCCUUGUGAAUAAAGAGAUGGAGUUUGGAAUUGUGUACAGCUGUGUGGAAGGCAAGAUGUACACCGGCAGGAAAGGGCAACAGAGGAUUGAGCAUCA` the bound/input enrichment was 0.282 ratio.
`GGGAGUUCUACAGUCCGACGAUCGUCAACAGCUGCCUCAACCCCAUCCUCUACGCCUUCCUGGAUGAGAACUUCAAGGCCUGCUUCCGCAAGUUCUGCUGUGCAUCUGCCCUGCACCGGGACGUGCAGGUUUCUGAUCGUGUGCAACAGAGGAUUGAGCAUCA` has a bound/input enrichment of 0.252 ratio.
For `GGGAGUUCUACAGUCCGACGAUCAAAGAGAAACUAAAGCAACUAAUAGAGGAAGAGGAUUGCAAAGAGAAUUUCAUAGAGAAACUAGGAUUUAUUAGCAAACAUGAGUUAGUAUUCCAGACGUCUCAGAAACCCCAGCCAAACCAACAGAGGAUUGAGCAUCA`, the bound/input enrichment was 2.83 ratio.
For `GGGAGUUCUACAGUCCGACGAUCUAAGUCCUGUGCCAGCAAUUUAUCCCAAAAGUUUUAAAUUCUGGACCAAUAGUGUUUGUUUCCUGAUUAUUGUAUCCAAUACUUUGCCUAGUAUGUAACUCACUCUUACUGAUAAUAAAACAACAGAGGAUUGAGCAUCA`, the bound/input enrichment was 4.06 ratio.
For `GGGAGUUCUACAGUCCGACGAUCCACACACUCUUCUGUGGGACCCUCAUCUUGCAGGCCCGGGCCUAUGUGGGACCGCACGUGCUAGCAGUGGUGACCCGCACAGGGUUCUGCACGGCAAAAGGGGGCCUGGUGAGCUCCAUCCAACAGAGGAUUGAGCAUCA`, the bound/input enrichment was 0.0993 ratio.
`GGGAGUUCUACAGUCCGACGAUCCGCUUGGAUGAGGCGGGUGUUACUGAUGAAGUGCUAGAUUCUGCCAUGCAAGCCUUCUUACUAGAAAUCAUUGUUAAACAUGGGGAGCCGGCACCUUAUUUAUGUAACAAAGAUCCGUUUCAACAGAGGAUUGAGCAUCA` has a bound/input enrichment of 0.163 ratio.
`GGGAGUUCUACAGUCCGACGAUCCUCAGAGAUGUGGCAUAUCAGUAUGUGAAAAAGGGGGCUCGUAUAUUUGUGGAAGGGAAAAUAGACUAUGGUGAAUACAUGGAUAAAAACAAUGUGAGGCGGCAAGCAACAACAAUCAUACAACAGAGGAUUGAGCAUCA` has a bound/input enrichment of 0.54 ratio.

Sample 3
Target: Interferon regulatory factor 3, full length, phosphomimetic (IRF3, Homo sapiens, UniProt Q14653, residues 1-427, S386D/S396D/S398D/S402D/T404D/S405D)
Method: protein-binding microarray
Molecule type: double-stranded DNA, one strand shown
Medium: in vitro
Tested at: 2540 nM top
Notes: 60-bp whole probe
Added: salmon DNA 0.4 mg/ml
Relative to: random background probes
Reading: higher = stronger binding
Constant ends, left off below: GCCTAGCAC … GTCTTGATTCGCTTGACGCTGCTG
Construct (chain): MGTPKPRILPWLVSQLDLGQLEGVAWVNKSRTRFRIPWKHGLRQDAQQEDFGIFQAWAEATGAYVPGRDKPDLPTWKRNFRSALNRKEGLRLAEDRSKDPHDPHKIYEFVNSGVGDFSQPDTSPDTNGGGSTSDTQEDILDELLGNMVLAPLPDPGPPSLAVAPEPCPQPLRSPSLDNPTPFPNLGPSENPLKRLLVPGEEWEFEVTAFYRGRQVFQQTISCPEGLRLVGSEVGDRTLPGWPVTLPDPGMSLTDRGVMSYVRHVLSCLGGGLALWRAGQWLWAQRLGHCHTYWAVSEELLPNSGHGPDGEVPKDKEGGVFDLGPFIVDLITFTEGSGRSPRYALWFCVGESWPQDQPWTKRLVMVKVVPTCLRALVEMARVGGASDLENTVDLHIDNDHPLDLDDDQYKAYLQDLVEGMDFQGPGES
`TCAGCTTTGCAGATAAAACTGTGCTAG`: “fitted relative affinity” -0.115 z-score.
`TCAGCATTCCCTTTCTCACTGTGCTAG`: “fitted relative affinity” 3.97 z-score.
Under “fitted relative affinity”, `TTAGGACTGCTACTGCTGTAGTGCTAG` is recorded as -0.844 z-score.
Under “fitted relative affinity”, `TTAGGTATCGGTAGCGGTTAGTGCTAG` is recorded as 1.53 z-score.
For `TTAGGACTGCTTCTCCATTAGTGCTAG`, “fitted relative affinity” read -0.246 z-score.
Under “fitted relative affinity”, `TCACATTTGGTTAGCGTACTGTGCTAG` is recorded as 0.74 z-score.
`GACGATATGAGTATCGAGACGTGCTAG` — result for “fitted relative affinity”: 0.0865 z-score.
For `TTAGAAATCGGGTATCGATTAGTGCTA`, “fitted relative affinity” read 0.0974 z-score.
`TCACAACTCTGTTTTCGACTGTGCTAG` — result for “fitted relative affinity”: 1.03 z-score.
`GACGATTTCGGGGATCGAGACGTGCTA`: “fitted relative affinity” 0.962 z-score.
`TTACGTTTCCTTTCCCTTTAGTGCTAG`: “fitted relative affinity” 9.56 z-score.
`GACGGTATCGACTATCGGGAGGTGCTA` — result for “fitted relative affinity”: 0.644 z-score.
Under “fitted relative affinity”, `TTAGGACTGGACTTTGGGTTAGTGCTA` is recorded as -0.9 z-score.
Under “fitted relative affinity”, `GACGGACCGCTACTGCTGACGTGCTAG` is recorded as -0.536 z-score.
`TCTGTTTTTGCTTTCTTTATGTGCTAG` — result for “fitted relative affinity”: 2.38 z-score.
For `GCTGGTCTCTAACTCAAGATGTGCTAG`, “fitted relative affinity” read 0.501 z-score.
Under “fitted relative affinity”, `TTAGGTCTCGGTATCAGTTAGTGCTAG` is recorded as 1.73 z-score.
For `GACGGTCTCGTTCTCGGGACGTGCTAG`, “fitted relative affinity” read 1.83 z-score.
Under “fitted relative affinity”, `TTAGGTATCGGACTGGGTCAGTGCTAG` is recorded as 1.21 z-score.
`TCATGTCTGGAGTCTCTGACTGTGCTA`: “fitted relative affinity” -0.524 z-score.
For `TTAGGAGTGGGTATCGGTTAGTGCTAG`, “fitted relative affinity” read 0.323 z-score.
`TTAGGTTCCCATTTCCTTTAGTGCTAG`: “fitted relative affinity” 5.36 z-score.
For `TTAGGTATCGGTTTCGGTTCGTGCTAG`, “fitted relative affinity” read 9.42 z-score.
For `TTAAAACTGAGTATCGATTAGTGCTAG`, “fitted relative affinity” read 0.396 z-score.
Under “fitted relative affinity”, `TCACGTTACTTCCTCAAACTGTGCTAG` is recorded as 0.542 z-score.

Sample 4
Target: ABI1, truncated, D143A, DHFR fusion (Arabidopsis thaliana)
Method: DHFR PCA, deep sequencing
Medium: yeast
Notes: methotrexate growth selection, single substitutions
Added: (+)-ABA 710 µM
Relative to: wild-type fitted maximum
Reading: higher = stronger binding
Starting sequence: PYL1, truncated, DHFR fusion (Arabidopsis thaliana); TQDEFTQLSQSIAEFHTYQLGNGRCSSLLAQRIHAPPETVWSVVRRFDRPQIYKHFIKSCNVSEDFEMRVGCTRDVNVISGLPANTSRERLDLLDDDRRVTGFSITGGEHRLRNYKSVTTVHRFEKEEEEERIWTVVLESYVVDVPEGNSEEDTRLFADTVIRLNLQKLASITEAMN; partner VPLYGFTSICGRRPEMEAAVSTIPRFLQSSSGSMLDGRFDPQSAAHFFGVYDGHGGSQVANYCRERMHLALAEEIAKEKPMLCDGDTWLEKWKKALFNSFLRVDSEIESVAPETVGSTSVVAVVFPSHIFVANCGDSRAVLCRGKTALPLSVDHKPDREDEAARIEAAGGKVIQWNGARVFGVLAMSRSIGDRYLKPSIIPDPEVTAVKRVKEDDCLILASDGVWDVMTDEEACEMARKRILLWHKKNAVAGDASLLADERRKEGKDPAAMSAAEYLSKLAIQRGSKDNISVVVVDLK
Under “relative binding score”, `T17P` is recorded as 80.9%.
`C72Y`: “relative binding score” 86.6%.
`T73I`: “relative binding score” 95.2%.
For `Q10S`, “relative binding score” read 108%.
For `R155T`, “relative binding score” read 97.9%.
`V136P` — result for “relative binding score”: -13.7%.
`D92S` — result for “relative binding score”: 85.6%.
`V40P`: “relative binding score” 14.7%.
Under “relative binding score”, `T106G` is recorded as 66.4%.
For `R46H`, “relative binding score” read 85.9%.
For `V161Y`, “relative binding score” read 89.3%.
Under “relative binding score”, `Q2Y` is recorded as 102%.
Under “relative binding score”, `V121R` is recorded as -11.6%.
`S140D`: “relative binding score” -5.33%.
`V70S`: “relative binding score” 91.3%.
`E131M`: “relative binding score” 106%.
For `T73F`, “relative binding score” read 101%.
For `K168I`, “relative binding score” read 87.8%.
`Y53W` — result for “relative binding score”: 102%.
For `E127K`, “relative binding score” read 111%.
Under “relative binding score”, `A170K` is recorded as 102%.
Under “relative binding score”, `R113P` is recorded as 58.3%.
